{"data": "Published values pooled from the literature", "CNR2": "Cannabinoid receptor 2 (CNR2, Homo sapiens, UniProt P34972)", "note": "Each line is one published result; not all experiments were run side by side. ± marks the error that the study gave.", "chain of UniProt P34972 (whole entry, unmodified, looked up)": "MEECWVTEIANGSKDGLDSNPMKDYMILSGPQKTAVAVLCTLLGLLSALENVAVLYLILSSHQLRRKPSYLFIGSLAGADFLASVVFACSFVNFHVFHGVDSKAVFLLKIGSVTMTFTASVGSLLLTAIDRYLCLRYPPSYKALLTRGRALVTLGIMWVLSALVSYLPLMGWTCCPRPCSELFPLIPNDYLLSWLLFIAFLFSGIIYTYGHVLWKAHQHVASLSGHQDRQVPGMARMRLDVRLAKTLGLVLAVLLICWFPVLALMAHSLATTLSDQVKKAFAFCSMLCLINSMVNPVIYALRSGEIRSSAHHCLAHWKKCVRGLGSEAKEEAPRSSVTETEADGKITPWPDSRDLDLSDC"}
{"SMILES": "CCC(=C(c1ccc(OCCN2CCCC2)cc1)c1ccc(OCCN2CCCC2)cc1)c1ccccc1", "target": "CNR2", "test": "ligand displacement, radioligand", "conditions": "cell membranes", "measurement": "Ki", "result": "0.0437 µM"}
{"SMILES": "CC1(Cc2ccccc2)COc2cc(C(=O)N3CCCCC3)ccc21 (stereo not drawn)", "target": "CNR2", "test": "GTPγS binding, agonist", "conditions": "cell membranes", "measurement": "EC50", "result": "0.128 µM"}
{"SMILES": "CCCCC/C=C\\C/C=C\\C/C=C\\C/C=C\\CCCC(=O)OC(CO)CO", "target": "CNR2 (Homo sapiens, UniProt P34972, Q63R)", "test": "β-arrestin 2 recruitment, agonist, BRET", "system": "HEK293 coexpressing GRK3", "measurement": "EC50", "result": "1.35 µM"}
{"SMILES": "CCCCCn1cc(C(=O)C23CC4CC(CC(C4)C2)C3)c2ccccc21", "target": "CNR2", "measurement": "IC50", "result": "1.7 ± 0.863 µM"}
{"SMILES": "CCC/C=C/CC1(C)COc2cc(C(=O)N3CCCCC3)ccc21 (stereo not drawn)", "target": "CNR2", "test": "GTPγS binding, agonist", "conditions": "cell membranes", "measurement": "EC50", "result": "0.0489 µM"}
{"SMILES": "CCCCCCCCCCCCC/C=C/CCC(=O)N[C@H](CO)COC", "target": "CNR2", "test": "cAMP, agonist", "measurement": "EC50", "result": "1.8 µM"}
{"SMILES": "CC(C)(CCCCCCN=C=S)c1cc(O)c2c(c1)OC(C)(C)C1CCC(CO)CC21 (single isomer, unassigned; (-))", "target": "CNR2", "test": "ligand displacement, radioligand", "measurement": "Ki", "result": "0.0045 µM"}
{"SMILES": "Cc1c(C(=O)NN2CCS(=O)(=O)CC2)nn(-c2ccc(Cl)cc2Cl)c1-c1ccc(C#CCCC#N)cc1", "target": "CNR2", "measurement": "IC50", "result": "1.3 ± 0.67 µM"}
{"SMILES": "O=C1/C(=C/c2cn(Cc3ccc(Cl)cc3)c3ccccc23)N2CCC1CC2", "target": "CNR2", "test": "cAMP level, agonist", "system": "CHO expressing human CB2", "conditions": "together with: 10 µM forskolin", "measurement": "IC50", "result": "0.0075 ± 0.0018 µM"}
{"SMILES": "CC1(C)Oc2cc([C@]34CC5CC(C[C@@](CN=[N+]=[N-])(C5)C3)C4)cc(O)c2[C@@H]2C[C@H](O)CC[C@H]21", "target": "CNR2", "test": "cAMP inhibition, agonist", "system": "HEK293 expressing hCB2", "conditions": "together with: forskolin", "measurement": "EC50", "result": "> 3 µM"}
{"SMILES": "CC1(Cc2ccccc2)COc2ccc(C(=O)N3CCCCC3)cc21 (stereo not drawn)", "target": "CNR2", "test": "GTPγS binding, agonist", "conditions": "cell membranes", "measurement": "EC50", "result": "> 10 µM"}
{"SMILES": "CC(C)(CCCCCC#N)c1cc(O)c2c(c1)OC(C)(C)[C@@H]1CC[C@@H](CO)C[C@@H]21", "target": "CNR2", "test": "binding", "measurement": "Ki", "result": "0.00037 µM"}
